Results of several laboratories.
Numbers after ± are the reported error.

SMILES	cell line	read-out	method	time	pH	notes	IC50 [µM]
N.N.O=C([O][Pt]([OH])([Cl])[Cl])c1ccc(P(c2ccccc2)c2ccccc2)cc1.[Cl][Au]	T24	cell growth or viability	resazurin	72 h			12.6
CC(=O)O[C@H]1C[C@H](O[C@H]2[C@@H](O)C[C@H](O[C@H]3[C@@H](O)C[C@H](O[C@H]4CC[C@@]5(C)[C@H](CC[C@@H]6[C@@H]5CC[C@]5(C)[C@@H](C7=CC(=O)OC7)[C@@H](O)C[C@]65O)C4)O[C@@H]3C)O[C@@H]2C)O[C@H](C)[C@H]1O[C@@H]1O[C@H](CO)[C@@H](O)[C@H](O)[C@H]1O	BEAS-2B	cell growth or viability	MTT	48 h			0.92
NC(=NN=Cc1cccs1)[S][Ru+]([Cl])([P](c1ccccc1)(c1ccccc1)c1ccccc1)[P](c1ccccc1)(c1ccccc1)c1ccccc1.[Cl-]	MCF-12A	cell growth or viability	resazurin	96 h			37.1
Cc1ccc(C(C)C)cc1.Clc1ccc2c(NCCNCc3ccccn3)ccnc2c1.[Cl-].[Cl][Ru+]	CHO	cytotoxicity	MTT				> 160
[Cl][Os][Ge]([Cl])([Cl])[Cl].c1ccc(P(c2ccccc2)c2ccccc2)cc1.c1ccccc1	peripheral blood mononuclear cells	cell viability	MTT	24 h			141 ± 1.5
CCC(C)C1OC(=O)C(NC(=O)c2cccc(NC=O)c2O)C(C)OC(=O)C(C(C)CC)OC(=O)C(C)(C)C(O)C(Cc2ccccc2)OC1=O (stereo not shown)	HCT-8	cell growth or viability	CCK-8	72 h			0.0118
O=C(CCCN1CCC2(CC1)C(=O)NCN2c1ccccc1)N(Cc1ccsc1)c1ccccc1	MIA PaCa-2	cell growth or viability	CCK-8	72 h			17
CC[C@H]1OC(=O)[C@H](C(C)C)NC(=O)[C@H](C)OC(=O)[C@@H](C(C)C)NC(=O)[C@@H](C(C)C)OC(=O)[C@H](C(C)C)NC(=O)[C@H](C)OC(=O)[C@@H](C(C)C)NC(=O)[C@@H](C(C)C)OC(=O)[C@H](C(C)C)NC(=O)[C@H](C)OC(=O)[C@@H](C(C)C)NC1=O	U-87 MG	cell growth or viability	SRB	72 h			0.4
COC(=O)CC[C@@H](NC(=O)[C@@H](Cc1ccc(OP(=O)(O)O)cc1)NC(=O)[C@@H](Cc1ccccc1)NC(=O)[C@@H](Cc1ccccc1)NC(=O)Cc1ccc2ccccc2c1)C(=O)OC	OVCAR-4	cell growth or viability					> 200
C[C@H]1O[C@@H](O[C@H]2[C@@H](O)C[C@H](O[C@H]3[C@@H](O)C[C@H](O[C@H]4CC[C@@]5(C)[C@H](CC[C@@H]6[C@@H]5C[C@@H](O)[C@]5(C)[C@@H](C7=CC(=O)OC7)[C@@H](O)C[C@]65O)C4)O[C@@H]3C)O[C@@H]2C)C[C@H](O)[C@@H]1O	BEAS-2B	cell growth or viability	MTT	48 h			1.24
[Cl][Au].[Se]=c1n(C2CCCCC2)ccn1C1CCCCC1	HCT-15	cell growth or viability	MTT	72 h			4.4
Cc1cc(C)c(-n2c[n+](-c3c(C)cc(C)cc3C)c3c2-c2cccc4cccc-3c24)c(C)c1.[Cl][Pd-]([Cl])[CH2]C=Cc1ccccc1	CHO	cell growth or viability	MTT	72 h			5
COc1cc(C=CC(=O)CC(=O)C=Cc2ccc(OC(=O)CCC(=O)OC3OC4OC5(C)CCC6C(C)CCC(C3C)C46OO5)c(OC)c2)ccc1OC(=O)CCC(=O)OC1OC2OC3(C)CCC4C(C)CCC(C1C)C24OO3 (stereo not shown)	SK-MEL3	cell viability	MTT	24 h		without deferoxamine	2.41 ± 0.8
CC(C)C[C@H](NC(=O)[C@H](CCC(N)=O)NC(=O)[C@@H]1CSSC[C@@H]2NC(=O)[C@H](CC(N)=O)NC(=O)[C@@H](NC(=O)[C@@H](CCCNC(=N)N)NC(=O)[C@@H](CCCNC(=N)N)NC(=O)[C@@H](CCCNC(=N)N)NC(=O)[C@@H](CCCNC(=N)N)NC(=O)[C@@H](CCCNC(=N)N)NC(=O)[C@@H](CCCNC(=N)N)NC(=O)[C@@H](CCCNC(=N)N)NC(=O)[C@@H](CCCNC(=N)N)NC(=O)[C@H](N)CCCNC(=N)N)CSSC[C@H](NC(=O)[C@H](Cc3ccccc3)NC(=O)[C@H](C)NC(=O)[C@H]([C@@H](C)O)NC(=O)[C@H](CCC(=O)O)NC(=O)[C@@H]3CCCN3C(=O)[C@H](C)NC(=O)[C@H](CCCCN)NC2=O)C(=O)N[C@@H](C)C(=O)N[C@@H](Cc2ccc(O)cc2)C(=O)N[C@@H](Cc2c[nH]c3ccccc23)C(=O)N1)C(N)=O	HCT-116 p53+/+	cytotoxicity					~6
CCCCCCCCCCCCN(CCCCCCCCCCCC)C1=[S+][Au-]2([S]1)[c]1ccccc1-c1cccc[c]12	UWB1289	cell growth or viability	MTT	72 h			> 100
O=C1CC2(C1)C(=O)[O][Pt]1([Cl])([O]C(=O)C(Cl)Cl)([NH][C@@H]3CCCC[C@H]3[NH]1)[O]C2=O	SGC-7901	cell growth or viability	MTT				16.8
Cc1nc([C@H](NC(=O)c2ccc(-c3ccc(Cl)cc3)[nH]2)[C@H]2CCCCN2)sc1CO	MAGI-CCR5 and HL2/3 cells	HIV-1 Env-mediated cell fusion	beta-galactosidase				7.6
CC(N)C(O)CCCCCCCCCCCCCCC(=O)CCCCCCCC(O)C(C)N (stereo not shown)	MCF-12A	cell growth or viability	resazurin	96 h			95.8
C[C@@H]1CCC2[C@@H](C)[C@@H](OCCC[P+](c3ccccc3)(c3ccccc3)c3ccccc3)O[C@@H]3O[C@@]4(C)CCC1[C@@]23OO4 (stereo partly shown)	T24	cell growth or viability	MTT	72 h			0.259
C[C@H]1[C@H](OC(=O)CCC(=O)OCCc2ccc(O)cc2)O[C@@H]2O[C@@]3(C)CC[C@H]4[C@H](C)CC[C@@H]1[C@@]24OO3	SK-MEL-3	cell viability	MTT	24 h			1.28 ± 0.15
CC(C)C[C@H](NC(=O)[C@H](CCCCN)NC(=O)[C@H](CC(C)C)NC(=O)[C@H](CC(C)C)NC(=O)[C@H](CCCCN)NC(=O)[C@H](CCCCN)NC(=O)[C@H](CC(C)C)NC(=O)[C@H](CC(C)C)NC(=O)[C@H](CCCCN)NC(=O)[C@H](CC(C)C)NC(=O)[C@H](CC(C)C)NC(=O)[C@H](CCCCN)NC(=O)[C@H](CCCCN)NC(=O)[C@H](CC(C)C)NC(=O)[C@@H](N)CSSC[C@H](N)C(=O)N[C@@H](CC(C)C)C(=O)N[C@@H](Cc1c[nH]cn1)C(=O)N[C@@H](CCC(=O)O)C(=O)N[C@@H](CC(C)C)C(=O)N[C@@H](CC(C)C)C(=O)N[C@@H](CCC(=O)O)C(=O)N[C@@H](Cc1c[nH]cn1)C(=O)N[C@@H](CC(C)C)C(=O)N[C@@H](Cc1c[nH]cn1)C(=O)N[C@@H](CCC(=O)O)C(=O)N[C@@H](CC(C)C)C(=O)N[C@@H](CC(C)C)C(=O)N[C@@H](CCC(=O)O)C(=O)N[C@@H](Cc1c[nH]cn1)C(N)=O)C(N)=O	4T1	cell growth or viability	MTT		pH 6		13.1
C[C@H]1C(OCCCCCCCCC[P+](c2ccccc2)(c2ccccc2)c2ccccc2)O[C@@H]2O[C@@]3(C)CCC4[C@H](C)CCC1[C@]42OO3 (stereo partly shown)	T24	cell growth or viability	MTT	72 h			0.116
Cc1cc(C)c(N2CCN(c3c(C)cc(C)cc3C)C2=[Se])c(C)c1.[Cl][Au]	H157 lung carcinoma cells	cell viability	MTT	72 h			0.6 ± 0.1
CCOC(=O)[C@@H]1Cc2c(cc([N+](=O)[O-])cc2[N+](=O)[O-])[C@H](O)[C@]12C(=O)Nc1ccc(Cl)cc12 (single isomer, unassigned)	U-251	cell growth or viability	MTT	24 h			12.6
CC(=O)N[C@@H](Cc1ccccc1)C(=O)N[C@@H](C)C(=O)N1CCC[C@H]1C(=O)N1CCC[C@H]1C(=O)N[C@@H](CCC(=O)O)C(=O)N[C@@H](Cc1c[nH]cn1)C(=O)N[C@@H](CO)C(=O)N[C@H](C(=O)N[C@@H](C)C(N)=O)[C@@H](C)OP(=O)(O)O	U-266	cell growth or viability	MTT	72 h			0.35
CCCC1(CN2c3ccccc3Sc3ccccc32)CCN(CC)C1 (stereo not shown)	Vero 76	cell growth or viability	neutral red				13.7
CCOC(=O)[C@H]1Cc2c(cc([N+](=O)[O-])cc2[N+](=O)[O-])[C@H](O)[C@]12C(=O)Nc1ccccc12	U-251	cell growth or viability	MTT	24 h			> 50
C#CCSc1nc(Sc2nnnn2C)c2nnn(Cc3ccccc3)c2n1	Raji	cell growth or viability	MTS	6 days			3.02

A few entries again:
SMILES	cell line	read-out	method	time	pH	notes	IC50 [µM]
C[C@H]1O[C@@H](O[C@H]2[C@@H](O)C[C@H](O[C@H]3[C@@H](O)C[C@H](O[C@H]4CC[C@@]5(C)[C@H](CC[C@@H]6[C@@H]5C[C@@H](O)[C@]5(C)[C@@H](C7=CC(=O)OC7)[C@@H](O)C[C@]65O)C4)O[C@@H]3C)O[C@@H]2C)C[C@H](O)[C@@H]1O	BEAS-2B	cell growth or viability	MTT	48 h			1.24
O=C1CC2(C1)C(=O)[O][Pt]1([Cl])([O]C(=O)C(Cl)Cl)([NH][C@@H]3CCCC[C@H]3[NH]1)[O]C2=O	SGC-7901	cell growth or viability	MTT				16.8
C#CCSc1nc(Sc2nnnn2C)c2nnn(Cc3ccccc3)c2n1	Raji	cell growth or viability	MTS	6 days			3.02
[Cl][Au].[Se]=c1n(C2CCCCC2)ccn1C1CCCCC1	HCT-15	cell growth or viability	MTT	72 h			4.4
